{"data": "Measured values of several laboratories", "note": "Each numbered part is a random draw from the data of one study; scales do not carry over between parts.", "chain of UniProt O43283 (whole entry, looked up)": "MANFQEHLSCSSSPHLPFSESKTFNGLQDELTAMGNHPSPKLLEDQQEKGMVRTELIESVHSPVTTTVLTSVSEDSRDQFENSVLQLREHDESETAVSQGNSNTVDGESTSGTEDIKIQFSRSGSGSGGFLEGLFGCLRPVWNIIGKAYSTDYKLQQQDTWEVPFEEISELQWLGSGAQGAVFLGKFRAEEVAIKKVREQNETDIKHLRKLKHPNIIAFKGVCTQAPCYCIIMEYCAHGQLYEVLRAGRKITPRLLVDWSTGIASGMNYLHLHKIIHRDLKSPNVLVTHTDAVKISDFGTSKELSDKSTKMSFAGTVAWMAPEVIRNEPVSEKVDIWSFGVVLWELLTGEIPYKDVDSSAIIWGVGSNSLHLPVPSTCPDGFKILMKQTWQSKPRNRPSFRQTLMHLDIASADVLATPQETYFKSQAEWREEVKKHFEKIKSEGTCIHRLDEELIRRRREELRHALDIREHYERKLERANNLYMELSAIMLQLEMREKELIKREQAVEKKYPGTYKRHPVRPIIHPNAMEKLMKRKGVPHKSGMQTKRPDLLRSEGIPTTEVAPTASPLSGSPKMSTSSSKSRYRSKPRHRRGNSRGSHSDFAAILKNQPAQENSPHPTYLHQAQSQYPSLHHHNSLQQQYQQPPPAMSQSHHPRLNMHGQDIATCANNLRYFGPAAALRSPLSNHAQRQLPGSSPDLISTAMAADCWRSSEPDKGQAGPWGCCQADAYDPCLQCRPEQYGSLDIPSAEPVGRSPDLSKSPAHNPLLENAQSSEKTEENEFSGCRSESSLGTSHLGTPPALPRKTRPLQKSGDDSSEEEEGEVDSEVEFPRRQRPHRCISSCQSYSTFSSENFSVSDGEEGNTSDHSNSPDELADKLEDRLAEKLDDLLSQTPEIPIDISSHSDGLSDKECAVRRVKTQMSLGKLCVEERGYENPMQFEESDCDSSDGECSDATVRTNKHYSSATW", "chain of UniProt P07949 (whole entry, unmodified, looked up)": "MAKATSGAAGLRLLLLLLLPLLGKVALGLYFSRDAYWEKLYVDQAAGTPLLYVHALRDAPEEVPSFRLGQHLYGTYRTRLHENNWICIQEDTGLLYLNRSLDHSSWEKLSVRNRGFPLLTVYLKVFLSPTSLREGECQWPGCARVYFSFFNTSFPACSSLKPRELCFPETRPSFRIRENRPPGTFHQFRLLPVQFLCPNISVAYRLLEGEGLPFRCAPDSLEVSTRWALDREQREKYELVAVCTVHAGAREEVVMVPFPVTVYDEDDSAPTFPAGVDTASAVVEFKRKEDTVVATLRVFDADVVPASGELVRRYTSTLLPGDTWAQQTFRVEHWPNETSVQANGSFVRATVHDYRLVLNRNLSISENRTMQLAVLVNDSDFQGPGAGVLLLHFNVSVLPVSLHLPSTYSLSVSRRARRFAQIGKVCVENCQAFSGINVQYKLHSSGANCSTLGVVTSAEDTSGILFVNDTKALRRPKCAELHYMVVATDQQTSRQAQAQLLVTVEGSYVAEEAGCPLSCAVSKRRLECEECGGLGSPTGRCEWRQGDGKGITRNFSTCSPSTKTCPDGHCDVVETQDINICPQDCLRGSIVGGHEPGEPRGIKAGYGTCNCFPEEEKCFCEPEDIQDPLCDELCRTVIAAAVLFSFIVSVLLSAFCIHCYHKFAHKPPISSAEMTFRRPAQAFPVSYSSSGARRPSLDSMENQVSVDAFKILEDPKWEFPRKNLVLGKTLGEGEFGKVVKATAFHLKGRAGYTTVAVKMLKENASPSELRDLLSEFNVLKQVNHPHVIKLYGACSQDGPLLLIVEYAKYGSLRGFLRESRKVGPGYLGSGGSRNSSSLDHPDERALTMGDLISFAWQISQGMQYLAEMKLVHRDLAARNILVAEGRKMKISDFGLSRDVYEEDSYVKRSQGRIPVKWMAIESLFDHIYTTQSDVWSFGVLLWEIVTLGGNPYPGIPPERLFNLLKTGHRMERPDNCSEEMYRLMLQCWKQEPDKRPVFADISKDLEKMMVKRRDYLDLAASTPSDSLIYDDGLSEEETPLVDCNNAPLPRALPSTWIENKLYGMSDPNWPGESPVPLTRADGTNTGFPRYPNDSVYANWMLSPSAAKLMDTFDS", "chain of UniProt P45983 (whole entry, looked up)": "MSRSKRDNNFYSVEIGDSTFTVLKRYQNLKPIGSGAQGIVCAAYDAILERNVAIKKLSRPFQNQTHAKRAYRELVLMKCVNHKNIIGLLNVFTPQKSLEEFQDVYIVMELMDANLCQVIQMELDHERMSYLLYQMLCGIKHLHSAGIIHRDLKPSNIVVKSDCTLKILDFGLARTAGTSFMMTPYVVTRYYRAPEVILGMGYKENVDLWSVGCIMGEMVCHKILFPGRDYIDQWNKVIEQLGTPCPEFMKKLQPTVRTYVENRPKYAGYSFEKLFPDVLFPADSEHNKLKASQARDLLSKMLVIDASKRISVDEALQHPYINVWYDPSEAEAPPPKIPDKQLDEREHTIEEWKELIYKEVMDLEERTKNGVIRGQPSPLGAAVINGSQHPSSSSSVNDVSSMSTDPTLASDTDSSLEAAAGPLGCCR", "chain of UniProt P54756 (whole entry, looked up)": "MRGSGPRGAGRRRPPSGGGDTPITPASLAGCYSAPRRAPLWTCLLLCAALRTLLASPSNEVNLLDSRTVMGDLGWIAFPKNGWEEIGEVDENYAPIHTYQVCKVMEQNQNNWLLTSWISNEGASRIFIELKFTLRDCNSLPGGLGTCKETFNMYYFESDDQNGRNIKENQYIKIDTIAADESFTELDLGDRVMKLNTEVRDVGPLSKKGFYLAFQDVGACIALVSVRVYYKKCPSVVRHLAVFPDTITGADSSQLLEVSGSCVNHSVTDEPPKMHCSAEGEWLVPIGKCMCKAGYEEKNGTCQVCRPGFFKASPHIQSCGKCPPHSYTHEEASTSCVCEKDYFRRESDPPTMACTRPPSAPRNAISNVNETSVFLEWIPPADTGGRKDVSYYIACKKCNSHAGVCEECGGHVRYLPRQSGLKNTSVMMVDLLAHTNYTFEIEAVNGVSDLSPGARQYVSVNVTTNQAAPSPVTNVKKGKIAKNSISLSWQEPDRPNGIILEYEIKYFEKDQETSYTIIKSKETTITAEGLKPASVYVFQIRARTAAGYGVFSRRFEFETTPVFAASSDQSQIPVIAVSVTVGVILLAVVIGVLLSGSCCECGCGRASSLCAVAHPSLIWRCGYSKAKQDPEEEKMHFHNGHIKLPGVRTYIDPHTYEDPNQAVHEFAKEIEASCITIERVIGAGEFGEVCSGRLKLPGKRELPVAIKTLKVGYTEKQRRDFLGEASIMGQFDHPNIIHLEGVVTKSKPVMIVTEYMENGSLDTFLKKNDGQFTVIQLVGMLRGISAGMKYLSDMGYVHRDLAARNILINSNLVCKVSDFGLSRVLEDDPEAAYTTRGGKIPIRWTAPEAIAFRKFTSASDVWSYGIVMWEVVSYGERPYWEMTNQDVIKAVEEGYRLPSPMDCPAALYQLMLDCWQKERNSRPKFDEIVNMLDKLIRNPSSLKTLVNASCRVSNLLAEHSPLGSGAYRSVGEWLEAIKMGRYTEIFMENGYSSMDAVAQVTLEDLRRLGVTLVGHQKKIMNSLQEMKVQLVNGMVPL", "chain of UniProt P42685 (whole entry, looked up)": "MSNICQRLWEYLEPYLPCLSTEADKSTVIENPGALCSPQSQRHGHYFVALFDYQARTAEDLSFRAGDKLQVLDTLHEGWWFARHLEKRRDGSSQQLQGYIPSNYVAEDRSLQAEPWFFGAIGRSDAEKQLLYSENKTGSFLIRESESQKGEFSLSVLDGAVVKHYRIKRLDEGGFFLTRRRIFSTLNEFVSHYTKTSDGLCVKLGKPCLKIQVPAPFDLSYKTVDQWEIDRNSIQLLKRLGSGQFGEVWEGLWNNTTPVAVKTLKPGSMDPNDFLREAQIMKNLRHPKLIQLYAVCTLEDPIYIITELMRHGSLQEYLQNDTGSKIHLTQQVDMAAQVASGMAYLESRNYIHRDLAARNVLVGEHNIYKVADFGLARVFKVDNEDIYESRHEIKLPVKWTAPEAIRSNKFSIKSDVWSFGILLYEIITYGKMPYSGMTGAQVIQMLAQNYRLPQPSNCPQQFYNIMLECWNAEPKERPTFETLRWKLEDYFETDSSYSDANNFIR", "chain of UniProt Q14164 (whole entry, looked up)": "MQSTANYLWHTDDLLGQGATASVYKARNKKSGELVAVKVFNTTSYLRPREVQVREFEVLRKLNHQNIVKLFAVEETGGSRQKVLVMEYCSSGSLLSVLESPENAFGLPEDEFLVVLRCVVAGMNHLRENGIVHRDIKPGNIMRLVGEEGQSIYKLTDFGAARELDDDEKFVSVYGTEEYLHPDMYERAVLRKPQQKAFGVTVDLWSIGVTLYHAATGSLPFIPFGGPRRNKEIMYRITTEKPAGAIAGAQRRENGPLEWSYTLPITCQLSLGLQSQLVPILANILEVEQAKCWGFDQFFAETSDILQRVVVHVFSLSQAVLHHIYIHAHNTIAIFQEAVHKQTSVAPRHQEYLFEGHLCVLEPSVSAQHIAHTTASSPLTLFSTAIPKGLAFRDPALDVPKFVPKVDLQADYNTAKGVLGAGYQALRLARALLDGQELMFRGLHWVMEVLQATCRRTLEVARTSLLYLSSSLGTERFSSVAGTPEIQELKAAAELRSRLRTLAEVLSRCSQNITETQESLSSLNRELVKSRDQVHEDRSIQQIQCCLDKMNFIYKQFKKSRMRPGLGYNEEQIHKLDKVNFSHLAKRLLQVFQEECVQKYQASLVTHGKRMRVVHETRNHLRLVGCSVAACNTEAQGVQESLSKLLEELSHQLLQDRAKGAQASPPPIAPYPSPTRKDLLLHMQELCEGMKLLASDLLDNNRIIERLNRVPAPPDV"}
{"data": "Series 1", "host": "human", "sample": "microsomes or S9", "tested at": "2 µM", "time": "0.5 h"}
{"Structure (SMILES)": "NC1=NN(c2ccc(Oc3ccccc3)c(S(=O)(=O)O)c2)C(=O)C1", "remaining compound [%]": "> 100"}
{"Structure (SMILES)": "Cn1ncc2c1NC(=O)CC2c1cc(Cl)cc2c1OCOC2 (centres unmarked)", "remaining compound [%]": 40.1}
{"Structure (SMILES)": "OC1CCCC1Oc1cc(-n2nc3c(c2Cl)CCCC3)c(F)cc1Cl (centres unmarked)", "remaining compound [%]": 18.2}
{"Structure (SMILES)": "CC(c1ccc(NC(=O)N2CCC=C(F)C2)cc1)N1CCOCC1 (centres unmarked)", "remaining compound [%]": "> 100"}
{"data": "Series 2", "Structure (SMILES)": "O=C(NCc1ncc(C(F)(F)F)cc1Cl)c1ccc2c(c1)C1(CCS(=O)(=O)CC1)[C@@H](C1CC1)N2S(=O)(=O)c1ccc(F)cc1", "read-out": "cell-free assay", "method": "competition with immobilised ligand", "tested at": "1 µM"}
{"target": "Inhibitor of nuclear factor kappa-B kinase subunit epsilon (IKBKE, Homo sapiens, UniProt Q14164)", "remaining binding [%]": 82}
{"target": "Mitogen-activated protein kinase 8 (MAPK8, Homo sapiens, UniProt P45983)", "remaining binding [%]": 55}
{"target": "Tyrosine-protein kinase FRK (FRK, Homo sapiens, UniProt P42685)", "remaining binding [%]": 99}
{"target": "Mitogen-activated protein kinase kinase kinase 13 (MAP3K13, Homo sapiens, UniProt O43283)", "remaining binding [%]": 0}
{"target": "Epidermal growth factor receptor (EGFR, Homo sapiens, UniProt P00533, L858R)", "remaining binding [%]": 100}
{"target": "Ephrin type-A receptor 5 (EPHA5, Homo sapiens, UniProt P54756)", "remaining binding [%]": 77}
{"target": "Proto-oncogene tyrosine-protein kinase receptor Ret (RET, Homo sapiens, UniProt P07949, M918T)", "remaining binding [%]": 100}
{"data": "Series 3", "Compound": "CC(C)n1cnc(-c2ccc(F)cc2)c1-c1ncc(C(=O)Nc2ccc(N3CCN(C)CC3)cc2)[nH]1", "method": "phase 2a trial"}
{"test system": "idiopathic pulmonary fibrosis patients", "setting": "oral, dose not given, GLDH increased, grade 3, all arms", "patients with TEAE [%]": 0}
{"test system": "patients with idiopathic pulmonary fibrosis", "setting": "30 mg once daily, skin papilloma, maximum intensity grade 1", "patients with TEAE [%]": 0}
{"test system": "idiopathic pulmonary fibrosis patients", "setting": "oral, 30 mg once daily, GLDH increased, grade 2", "patients with TEAE [%]": 0}
{"test system": "patients with idiopathic pulmonary fibrosis", "setting": "60 mg once daily, renal and urinary disorders SOC, grade 2", "patients with TEAE [%]": 0}
{"data": "Mixed results", "cell line": "mouse MPNST tumor cells", "method": "high-content immunofluorescence imaging", "refers to": "nuclear SOX9", "tested at": "10 µM", "time": "12 h", "notes": "mean of 2 replicates", "relative to": "DMSO control", "reading": "higher = more nuclear SOX9"}
{"SMILES": "O=C(NCCO)c1cccc(-c2cc(Nc3ccc(OC(F)(F)F)cc3)ncn2)c1", "nuclear SOX9 intensity": "162 % of DMSO"}
{"SMILES": "O=C(O)CCNc1cc(N2CCc3ccccc3CC2)nc(-c2cccnc2)n1", "nuclear SOX9 intensity": "100 % of DMSO"}
{"note": "Some of these lines once more (series 1):"}
{"Structure (SMILES)": "OC1CCCC1Oc1cc(-n2nc3c(c2Cl)CCCC3)c(F)cc1Cl (centres unmarked)", "remaining compound [%]": 18.2}
